Measurements pooled from the literature.
Every numbered part comes from another study and shows a few of its results, in no order.
UniProt Q8NEV4, sequence (whole entry, looked up): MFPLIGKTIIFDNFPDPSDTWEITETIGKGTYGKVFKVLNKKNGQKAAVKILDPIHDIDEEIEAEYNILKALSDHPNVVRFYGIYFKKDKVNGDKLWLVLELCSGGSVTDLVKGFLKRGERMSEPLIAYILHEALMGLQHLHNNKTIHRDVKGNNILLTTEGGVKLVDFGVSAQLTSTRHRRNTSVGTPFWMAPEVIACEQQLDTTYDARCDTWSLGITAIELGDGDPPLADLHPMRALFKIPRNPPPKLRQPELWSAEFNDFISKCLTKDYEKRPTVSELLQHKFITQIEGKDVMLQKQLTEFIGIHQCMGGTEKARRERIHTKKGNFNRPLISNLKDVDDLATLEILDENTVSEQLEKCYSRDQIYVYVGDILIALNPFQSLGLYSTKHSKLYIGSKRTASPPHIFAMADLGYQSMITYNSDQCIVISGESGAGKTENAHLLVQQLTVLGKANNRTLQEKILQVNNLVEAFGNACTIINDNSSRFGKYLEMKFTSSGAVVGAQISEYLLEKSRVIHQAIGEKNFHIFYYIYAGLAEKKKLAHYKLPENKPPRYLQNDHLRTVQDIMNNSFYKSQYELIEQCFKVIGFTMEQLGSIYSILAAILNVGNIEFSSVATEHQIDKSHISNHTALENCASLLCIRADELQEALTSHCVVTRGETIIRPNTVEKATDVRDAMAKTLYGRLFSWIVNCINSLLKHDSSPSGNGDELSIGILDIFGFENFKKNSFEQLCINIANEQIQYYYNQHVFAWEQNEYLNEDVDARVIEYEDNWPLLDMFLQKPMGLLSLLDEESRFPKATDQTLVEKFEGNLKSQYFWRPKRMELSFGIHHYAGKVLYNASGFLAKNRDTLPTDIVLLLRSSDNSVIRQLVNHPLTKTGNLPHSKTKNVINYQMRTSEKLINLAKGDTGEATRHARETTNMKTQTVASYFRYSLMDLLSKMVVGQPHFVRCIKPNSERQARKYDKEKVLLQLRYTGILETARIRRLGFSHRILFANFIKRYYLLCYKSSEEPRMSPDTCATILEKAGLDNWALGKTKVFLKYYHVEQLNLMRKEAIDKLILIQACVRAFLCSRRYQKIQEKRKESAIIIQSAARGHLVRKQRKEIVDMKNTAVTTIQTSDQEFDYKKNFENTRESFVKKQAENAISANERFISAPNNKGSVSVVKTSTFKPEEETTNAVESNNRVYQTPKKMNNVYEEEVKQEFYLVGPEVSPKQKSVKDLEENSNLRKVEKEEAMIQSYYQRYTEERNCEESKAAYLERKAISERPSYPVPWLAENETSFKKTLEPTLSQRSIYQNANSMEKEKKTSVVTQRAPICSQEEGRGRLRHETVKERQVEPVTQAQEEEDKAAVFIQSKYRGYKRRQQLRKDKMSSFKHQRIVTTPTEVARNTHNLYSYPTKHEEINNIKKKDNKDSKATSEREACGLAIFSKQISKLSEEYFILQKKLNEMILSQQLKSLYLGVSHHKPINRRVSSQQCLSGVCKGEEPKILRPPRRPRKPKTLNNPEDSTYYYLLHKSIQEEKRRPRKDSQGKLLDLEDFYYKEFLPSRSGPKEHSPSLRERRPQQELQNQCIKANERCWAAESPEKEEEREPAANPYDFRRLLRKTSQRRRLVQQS
UniProt Q9Y2H1, sequence (whole entry, looked up): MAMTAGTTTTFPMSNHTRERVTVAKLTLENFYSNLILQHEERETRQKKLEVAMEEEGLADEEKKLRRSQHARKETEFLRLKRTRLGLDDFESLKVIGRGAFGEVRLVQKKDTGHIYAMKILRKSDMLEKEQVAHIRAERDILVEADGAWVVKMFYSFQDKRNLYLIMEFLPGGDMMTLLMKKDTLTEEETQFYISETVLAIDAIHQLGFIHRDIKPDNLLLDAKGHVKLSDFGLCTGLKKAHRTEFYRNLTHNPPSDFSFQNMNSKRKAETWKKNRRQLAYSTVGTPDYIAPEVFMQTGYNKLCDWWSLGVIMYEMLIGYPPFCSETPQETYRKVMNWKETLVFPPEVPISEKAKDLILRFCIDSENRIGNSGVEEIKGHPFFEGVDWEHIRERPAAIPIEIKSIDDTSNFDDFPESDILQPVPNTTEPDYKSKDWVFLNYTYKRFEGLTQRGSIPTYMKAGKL
UniProt Q9HBY8, sequence (whole entry, looked up): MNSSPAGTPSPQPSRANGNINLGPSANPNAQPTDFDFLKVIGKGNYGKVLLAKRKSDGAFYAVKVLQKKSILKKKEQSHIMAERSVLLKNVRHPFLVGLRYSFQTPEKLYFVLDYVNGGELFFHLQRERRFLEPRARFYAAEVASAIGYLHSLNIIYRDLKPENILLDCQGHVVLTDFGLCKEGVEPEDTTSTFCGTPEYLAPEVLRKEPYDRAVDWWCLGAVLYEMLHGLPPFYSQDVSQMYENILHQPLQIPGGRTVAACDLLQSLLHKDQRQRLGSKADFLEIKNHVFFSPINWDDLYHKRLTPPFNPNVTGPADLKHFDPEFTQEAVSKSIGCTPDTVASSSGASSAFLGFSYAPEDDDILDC

Series 1
Target: Ephrin type-A receptor 2 (EPHA2, Homo sapiens, UniProt P29317)
UniProt P29317, sequence (whole entry, looked up): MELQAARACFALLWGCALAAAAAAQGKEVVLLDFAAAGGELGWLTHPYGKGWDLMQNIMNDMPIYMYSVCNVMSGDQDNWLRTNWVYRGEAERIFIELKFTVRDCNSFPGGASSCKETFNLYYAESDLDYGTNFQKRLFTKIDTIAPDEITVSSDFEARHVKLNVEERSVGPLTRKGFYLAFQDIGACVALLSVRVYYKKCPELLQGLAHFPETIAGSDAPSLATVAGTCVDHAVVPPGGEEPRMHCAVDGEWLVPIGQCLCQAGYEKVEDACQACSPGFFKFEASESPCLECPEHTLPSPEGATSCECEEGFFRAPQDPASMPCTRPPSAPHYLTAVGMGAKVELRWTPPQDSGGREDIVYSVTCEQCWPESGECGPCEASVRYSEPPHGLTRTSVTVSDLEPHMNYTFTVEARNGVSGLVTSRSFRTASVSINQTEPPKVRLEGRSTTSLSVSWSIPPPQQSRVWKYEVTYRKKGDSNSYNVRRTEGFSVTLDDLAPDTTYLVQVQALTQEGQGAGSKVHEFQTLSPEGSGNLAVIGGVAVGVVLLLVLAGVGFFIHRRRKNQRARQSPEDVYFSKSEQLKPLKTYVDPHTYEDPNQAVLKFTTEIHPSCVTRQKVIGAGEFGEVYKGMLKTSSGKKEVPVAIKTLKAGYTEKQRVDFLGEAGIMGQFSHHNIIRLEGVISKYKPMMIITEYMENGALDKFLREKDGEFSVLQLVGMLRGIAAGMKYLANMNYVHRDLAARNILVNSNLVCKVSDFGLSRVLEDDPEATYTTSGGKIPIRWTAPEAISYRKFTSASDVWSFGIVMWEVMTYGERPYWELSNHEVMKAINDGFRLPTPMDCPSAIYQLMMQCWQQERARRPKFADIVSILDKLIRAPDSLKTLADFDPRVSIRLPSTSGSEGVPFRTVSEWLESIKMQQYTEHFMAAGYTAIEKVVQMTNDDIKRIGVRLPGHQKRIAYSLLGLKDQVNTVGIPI
Observed: enzyme activity
Action: inhibitor
Tested at: 0.5 µM
Relative to: control
Structure (SMILES)	remaining activity [%]
Cc1ccc(Nc2nccc(N(C)c3ccc4c(C)n(C)nc4c3)n2)cc1S(N)(=O)=O	85.7
COc1ccc(OC)c2c(=S)c3ccccc3[nH]c12	100
OCC(O)CCON=C1C(c2c(O)[nH]c3ccccc23)=Nc2ccccc21 (stereo not drawn)	65.3
COc1cc2ncnc(Nc3ccc(F)c(Cl)c3)c2cc1OCCCN1CCOCC1	85.7
Nc1ncnc2n[nH]c(Nc3ccc(F)cc3)c12	89.9
O=C1NC(=O)C(c2cn(CCCn3ccnc3)c3ccccc23)=C1Nc1ccccc1	101
O=c1c2ccccc2[nH]c(=S)n1CCN1CCC(=C(c2ccc(F)cc2)c2ccc(F)cc2)CC1	105
O=S(=O)(c1cccc2cnccc12)N1CCCNCC1	102
O=C(CCCc1ccc(-c2ccccc2F)cc1)Nc1ccc(O)cc1	101
COc1ccc(CNC(=O)Nc2ncc([N+](=O)[O-])s2)cc1	100
Nc1[nH]nc2nc3ccccc3nc12	98.5
CC(C)[C@H](CO)Nc1nc(Nc2cc(N)cc(Cl)c2)c2ncn(C(C)C)c2n1	67.5
NCCNc1ncc(C(N)=O)c(Nc2cccc(C(F)(F)F)c2)n1	99.5
Cc1nc(-c2ccccc2)c(-c2ccncc2)o1	104
O=C(Nc1cccc(Nc2cc(Nc3cccc(C(F)(F)F)c3)ncn2)c1)C1CC1	104
COc1cc2ncnc(Nc3ccc(Oc4ccccc4)cc3)c2cc1OC	106

Series 2
Host: mouse
Medium: microsomes or S9
Tested at: 2 µM
Time: 0.5 h
SMILES	remaining compound [%]
O=c1[nH]ncn2nc(-c3ccc(Cl)c(Cl)c3)cc12	> 99.9
c1ccc2c(c1)CCN(c1nc(N3CCOCC3)c3nn[nH]c3n1)C2	74.9
CCOC(=O)C1=C(c2ccccc2)c2cc3c(cc2C1=O)OCO3	3.58
Cn1cc(-c2noc(-c3n[nH]c4ccccc34)n2)ccc1=O	42.7
Oc1ccc([C@H]2c3c(O)cc(O)cc3[C@@H]3c4c(cc(O)c5c4[C@@H]2[C@@H](c2ccc(O)cc2)[C@@H]5c2cc(O)cc(O)c2)O[C@@H]3c2ccc(O)cc2)cc1	65.3
Nc1ccc2nc(CCCc3nc4ccc(N)cc4s3)sc2c1	53.7
CN(C)CCCNC(=O)c1cc(S(=O)(=O)N(C)C)c(Cl)cc1Cl	0.519
O=S(=O)(Cc1ccccc1)CC(O)Cn1cccn1 (stereo not drawn)	75.8
Cn1c(=O)c2cc(C(=O)O)c(=O)n(C)c2n(C)c1=O	50.3

Series 3
Organism: Plasmodium berghei
Action: inhibitor
Cells: Huh-7
Strain: GFP-expressing, liver stage
Tested at: 10 µM
Time: 24 h
Relative to: untreated control
SMILES	infection rate [%]
NC[C@H](O)c1ccc(O)c(O)c1	86.8
Cc1noc(NS(=O)(=O)c2ccc(N)cc2)c1C	92.4
Cc1ccc(C(=O)Nc2ccc(S(=O)(=O)O)c3cc(S(=O)(=O)O)cc(S(=O)(=O)O)c23)cc1NC(=O)c1cccc(NC(=O)Nc2cccc(C(=O)Nc3cc(C(=O)Nc4ccc(S(=O)(=O)O)c5cc(S(=O)(=O)O)cc(S(=O)(=O)O)c45)ccc3C)c2)c1	86.6
CC(c1cc2ccccc2s1)N(O)C(N)=O (stereo not drawn)	88.5
CN1CCN(CC/C=C2/c3ccccc3Sc3ccc(S(=O)(=O)N(C)C)cc32)CC1	33.5
O=C(O)c1cc(O)c2c(c1)[C@H]([C@H]1c3cc(C(=O)O)cc(O)c3C(=O)c3c(O[C@@H]4O[C@H](CO)[C@@H](O)[C@H](O)[C@H]4O)cccc31)c1cccc(O[C@@H]3O[C@H](CO)[C@@H](O)[C@H](O)[C@H]3O)c1C2=O	81

Series 4
Structure (SMILES): CN(C)CC#Cc1ccc(OCCCc2sc(N3CCc4cccc(C(=O)Nc5nc6ccccc6s5)c4C3)nc2C(=O)O)c(F)c1
Technique: competition with immobilised ligand
Tested at: 1 µM
target	test	remaining binding [%]
Leukocyte tyrosine kinase receptor (LTK, Homo sapiens, UniProt P29376)	cell-free assay	100
Serine/threonine-protein kinase N2 (PKN2, Homo sapiens, UniProt Q16513)	cell-free assay	100
Serine/threonine-protein kinase Sgk2 (SGK2, Homo sapiens, UniProt Q9HBY8)	cell-free assay	100
Receptor-type tyrosine-protein kinase FLT3 (FLT3, Homo sapiens, UniProt P36888, ITD)	cell-free assay	97
Macrophage colony-stimulating factor 1 receptor, autoinhibited (CSF1R, Homo sapiens, UniProt P07333)	cell-free assay	87
Cyclin-G-associated kinase (GAK, Homo sapiens, UniProt O14976)	cell-free assay	100
Myosin-IIIa (MYO3A, Homo sapiens, UniProt Q8NEV4)	binding	100
Serine/threonine-protein kinase 38-like (STK38L, Homo sapiens, UniProt Q9Y2H1)	cell-free assay	83

Some of these lines once more (series 1):
Structure (SMILES)	remaining activity [%]
Cc1nc(-c2ccccc2)c(-c2ccncc2)o1	104
Cc1ccc(Nc2nccc(N(C)c3ccc4c(C)n(C)nc4c3)n2)cc1S(N)(=O)=O	85.7
COc1ccc(CNC(=O)Nc2ncc([N+](=O)[O-])s2)cc1	100
OCC(O)CCON=C1C(c2c(O)[nH]c3ccccc23)=Nc2ccccc21 (stereo not drawn)	65.3
O=C1NC(=O)C(c2cn(CCCn3ccnc3)c3ccccc23)=C1Nc1ccccc1	101
O=S(=O)(c1cccc2cnccc12)N1CCCNCC1	102
